Measured values from different studies.
Every numbered part comes from another study and shows a few of its results, in no order. Positions count from the first letter of the parent shown.

Sample 1 — method: RNA Bind-n-Seq; form: RNA; sample: in vitro; tested at: not given; relative to: input RNA pool; direction: higher = stronger binding
Target: RING finger protein unkempt homolog, zinc fingers 1-6, GST-SBP tag (UNK, Homo sapiens, UniProt Q9C0B0, residues 30-357)
UniProt Q9C0B0, sequence (30-357, looked up): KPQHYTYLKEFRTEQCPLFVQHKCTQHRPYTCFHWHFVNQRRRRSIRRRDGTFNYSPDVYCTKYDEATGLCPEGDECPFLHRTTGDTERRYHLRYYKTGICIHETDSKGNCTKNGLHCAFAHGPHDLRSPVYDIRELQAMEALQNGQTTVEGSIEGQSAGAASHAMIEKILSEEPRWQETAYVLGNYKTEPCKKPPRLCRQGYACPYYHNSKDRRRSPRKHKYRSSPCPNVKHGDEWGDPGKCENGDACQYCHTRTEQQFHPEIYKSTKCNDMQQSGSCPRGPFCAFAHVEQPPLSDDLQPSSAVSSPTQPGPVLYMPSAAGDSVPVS
Setting: RNA with constant flanks, human and mouse sites, ends assumed
Constant ends, left off below: GGGAGUUCUACAGUCCGACGAUC … CAACAGAGGAUUGAGCAUCA
The bound/input enrichment of `CUUUUAUGCGACCAUUGUUGCAGUGGUCGGGCUUCAUGUGGUGCUGGCAAUUUUCGUCUUCAUAGUGUGGAAGGAGGGCUUGCCCCAGUGGCGGGAAAACAAAAACGAAUAGAGCAGCUU` is reported as 0.48 ratio.
`GUGCUGAGUGAACUGGAGCCACUGUGUCUGGCAGAACAGGACUUCAUAAGUAAAUUUUUCAAACUACAGCAGCAUCAAAACAUGUCUGCAUCAAUGACUGAAGCAGAAGACCUGGAUGGA` has a bound/input enrichment of 0.459 ratio.
`CCAGUGAGAAAAAGAGUGCUGGAAAAACGUGGAGACGACUUUAAAAAGGAGGGGAAAAUUUAUAGAUUAAGGACUCAAGAUGAUGGUGAAGAUGAAAACAACACUUGGAAUGGAAAUUCC` gave a bound/input enrichment of 0.612 ratio.
`UGAAUAUGAUACUUCUUUAUUCACAGUAUCUGUGUCUCCUGCACCCUUUGGUGUUGCAAUUUUAGGUAUGUGAAAGUAGAUGUUAGCAGGGUUCUCUCCCUAUUUAAAAAUAAAUUUUAA` gave a bound/input enrichment of 10.3 ratio.
For `CGCUUUACAAGUGCUGGACAAGCAUCUAAGAAUAUAAUCCAGCCACCGUCAUGUGUGCUGCAUUAUUACAAUGUUCCGCUGUGUGUCACAGAAGAGACCUUCACAAAGUUGUGUAACGAC`, the bound/input enrichment was 0.173 ratio.
The bound/input enrichment of `GUGAAUUGGCAGCCUCCCUCCGAAGCCAAUGGCAAAAUUACAGGUUACAUCAUAUAUUACAGUACAGAUGUGAAUGCAGAGAUACAUGACUGGGUUAUUGAGCCUGUUGUGGGAAACAGA` is reported as 0.224 ratio.
The bound/input enrichment of `AGUACUGUUAUCAACAAUACCAGAGGAAUAAUUUUUUAUAGUGUCCCUCAUCAUGGAUCACGUUUGGCUGAAUACUCUGUUAAUAUUCGCUAUCUUCUCUUCCCCUCGUUGGAAGUCAAA` is reported as 0.298 ratio.
For `UUCAGUGCCUCAAUUGAUGACAAGGUUGGUAGACAUUUUAAAAUGAUCGACAAUGUCUAUAAUCCUGCAGCCAUUGCUGUUGAUUGGGUGUACAAGACCAUCUACUGGACUGAUGCGGCU`, the bound/input enrichment was 0.131 ratio.
`UAUGACUGCUUAGCAAUGGCAGUUGAGACUGGUCUCCUUCCACCCAGGAUGGUUUGUGAAUCUUUGAUAAACUCUGACUCUCUUGAAUGGGAAAGAACACAGCUUUGGGCCUUAACAUUU` has a bound/input enrichment of 0.216 ratio.
The bound/input enrichment of `GAGCUUAUCUGCAAGAUGGCUGCCUGCCCAGAGAAGCUAGACCUGAACCUGGCGGCAGCUGUGCAUAAGGAGAUGUUCAUCAUGGUGCAAGAAGAGCGGCGUCUACGAAAGGCCCUGCUG` is reported as 0.112 ratio.

Sample 2 — method: protein binding microarray; form: double-stranded DNA, one strand shown; sample: in vitro; tested at: not given; relative to: not given; direction: higher = stronger binding
Target: Histone acetyltransferase KAT6A, winged helix 2, GST fusion (KAT6A, Homo sapiens, UniProt Q92794, residues 85-181)
Setting: 8-mer, flanks averaged, mean of 2 arrays, mostly near background
Construct (chain): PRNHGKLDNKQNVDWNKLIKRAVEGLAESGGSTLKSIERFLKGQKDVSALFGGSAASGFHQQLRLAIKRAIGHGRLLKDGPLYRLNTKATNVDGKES
`CCCGCCAC` has an E-score of 0.124.
For `TACACGGA`, the E-score was -0.0203.
The E-score of `CCTCTCGA` is reported as -0.0876.
`CCCATTTC` has an E-score of -0.211.
With `GATATACC` the E-score was 0.0465.
`AGCCCCGC` has an E-score of 0.01.
`AACCGTGT` has an E-score of -0.0689.
The E-score of `TGCCACCA` is reported as -0.0601.
With `CTATGTGA` the E-score was -0.122.
The E-score of `ACCATGTC` is reported as -0.0649.
`AGGCACTA` has an E-score of 0.138.
`AAATCCGA` has an E-score of 0.0191.
`GAGTCGGC` gave an E-score of 0.176.
`ATCGGTCG` has an E-score of 0.0893.

Sample 3 — target: CCND1, cyclin fold, Cln2 fusion (human); method: yeast growth competition, sequencing; sample: yeast; setting: weak parent motif; relative to: not given; direction: higher = stronger binding
Parent: GMNC docking peptide (human); KNAKRNLSSEFAN
`S8H`: “normalised enrichment score” 0.353.
`L7G` — result for “normalised enrichment score”: 0.0785.
Under “normalised enrichment score”, `N2D` is recorded as 0.408.
For `S8W`, “normalised enrichment score” read 0.215.
For `L7F`, “normalised enrichment score” read -0.116.
Under “normalised enrichment score”, `E10N` is recorded as 0.0163.
`K4E`: “normalised enrichment score” -0.132.
`E10S`: “normalised enrichment score” -0.108.
For `A12P`, “normalised enrichment score” read 0.208.
Under “normalised enrichment score”, `N2Y` is recorded as 0.33.
`N6M` — result for “normalised enrichment score”: -0.11.
`A12W` — result for “normalised enrichment score”: 0.693.

Other studies, line by line
For `PhoQ, residues 284 288 289 292 302 303 ALAMYF`, the fold induction was 3.07 (PhoP, residues 12 14 15 18 19 YHFSH (Escherichia coli, UniProt P23836); Sort-seq, measured: YFP reporter; E. coli; PhoQ-PhoP variant library, together with: 10 µM Mg2+; relative to: high Mg2+ state, higher = stronger signaling).
